Measurements gathered from unrelated publications.
Each numbered part is a random draw from the data of one study; scales do not carry over between parts.

Study 1
Target: TAR DNA-binding protein 43, full length, His tag (TARDBP, Homo sapiens, UniProt Q13148, residues 1-414)
Technique: RNA Bind-n-Seq
Molecule type: RNA
Medium: in vitro
Tested at: 20 nM
Setting: 6-mer, flanks averaged, single round
Together with: 150 mM LiCl
Reference: input library
Direction: higher = stronger binding
| Strand | 6-mer enrichment (R) |
| --- | --- |
| UCUGAA | 0.852 |
| CACUCU | 0.873 |
| ACGAAU | 0.866 |
| ACACGG | 0.853 |
| CCCGUG | 1.04 |
| CACUUC | 0.854 |
| GAGCUG | 0.992 |

Study 2
Target: Max-binding protein MNT, bHLH-zipper, MAX partner unstated (MNT, Homo sapiens, UniProt Q99583, residues 220-300)
Technique: protein-binding microarray
Molecule type: double-stranded DNA, one strand shown
Medium: in vitro
Tested at: not given
Setting: k-mer, scored over probes, only values ≥0.25
Direction: higher = stronger binding
Residues (chain): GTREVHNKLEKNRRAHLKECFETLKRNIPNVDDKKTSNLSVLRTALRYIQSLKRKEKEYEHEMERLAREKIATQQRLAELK
| Strand | E-score |
| --- | --- |
| CGTGCTCC | 0.351 |
| AACATGCG | 0.427 |
| ACGTGATG | 0.421 |
| CACGCCAA | 0.266 |
| CGTGCTGA | 0.38 |
| CATGCCTA | 0.304 |
| ACTCACGC | 0.284 |

Study 3
Target: Histone acetyltransferase KAT6A, winged helix 1, GST fusion (KAT6A, Homo sapiens, UniProt Q92794, residues 1-85)
Technique: protein binding microarray
Molecule type: double-stranded DNA, one strand shown
Medium: in vitro
Tested at: not given
Setting: 8-mer, flanks averaged, mean of 2 arrays, mostly near background
Reference: not given
Direction: higher = stronger binding
Construct (chain): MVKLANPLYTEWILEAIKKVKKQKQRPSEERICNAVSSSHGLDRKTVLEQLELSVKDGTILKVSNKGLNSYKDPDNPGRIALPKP
| Strand | E-score |
| --- | --- |
| CTAGCTTC | -0.0542 |
| CCCCTCAA | -0.149 |
| AAATTCCA | -0.233 |
| GATCAGTA | -0.158 |
| AATGGCCG | 0.172 |

Single results of other studies
| Molecule | target | test | system | conditions | how to read | quantity | result |
| --- | --- | --- | --- | --- | --- | --- | --- |
| PhoQ, residues 284 288 289 292 302 303 SMYGEC | PhoP, residues 12 14 15 18 19 STWGI (Escherichia coli, UniProt P23836) | Sort-seq, refers to: YFP reporter | E. coli | PhoQ-PhoP variant library, together with: 10 µM Mg2+ | reference: high Mg2+ state, higher = stronger signaling | fold induction | 1.69 |

For quick reference, copied from above (study 3):
| Strand | E-score |
| --- | --- |
| CCCCTCAA | -0.149 |
| AAATTCCA | -0.233 |
